Results pooled from the literature.
Lines come from different studies, so protocols differ. ± marks the error that the study gave.
Organism: HIV-1

The EC50/IC50 ratio of `C#Cc1ccc(C[C@@H]2NC(=O)CSCCNC(=O)[C@H](Cc3ccccc3)N(C)C(=O)[C@H](CC(C)C)NC(=O)[C@H](Cc3cccc4ccccc34)NC(=O)[C@H](CC(C)C)NC(=O)C(C)(C)NC(=O)[C@@H]3CCCN3C(=O)[C@H](C(C)C)NC2=O)cc1` is reported as 49.1 (viral replication; MT4; relative to: cell EC50 over protease IC50).
With `CC[C@H](C)[C@@H]1NC(=O)[C@@H]2CCCN2C(=O)[C@H](C)NC(=O)[C@H](CC(C)C)NC(=O)[C@@H]2CCCN2C(=O)[C@H](C)NC(=O)[C@@H]2CSSC[C@H](NC(=O)[C@H](C)NC(=O)[C@H](C)NC(=O)[C@H](Cc3ccc(O)cc3)NC(=O)[C@@H]3CCCN3C(=O)CNC(=O)[C@H](Cc3c[nH]c4ccccc34)NC1=O)C(=O)N[C@@H](CC(C)C)C(=O)N[C@@H](CO)C(=O)N[C@@H](C)C(=O)N[C@H]1CSSC[C@H](NC(=O)[C@H](C(C)C)NC(=O)[C@@H]3CCCN3C(=O)CNC(=O)CNC(=O)CNC(=O)[C@H](C)NC(=O)[C@H](C)NC(=O)[C@H](CC(C)C)NC1=O)C(=O)N[C@@H](CC(C)C)C(=O)N[C@@H](C)C(=O)N[C@@H](C(C)C)C(=O)N2` the EC50 was over 128 µg/mL (viral replication).
`COc1cc2nc(NC3CCN(Cc4ccc(C(N)=O)cc4)CC3)nc(Oc3c(C)cc(C#N)cc3C)c2cc1OC` gave a fold resistance of 1 (viral replication, MTT; MT-4, IIIB wild type; relative to: EC50 mutant over EC50 IIIB).
For `O=C(NCCCCCCCC(=O)N1CCCC2=CC3CC(CN4CCCCC34)C21)c1ccc(OC(F)(F)F)cc1` (centres unmarked), the IC50 was over 20000 nM (viral replication, multicycle luciferase; MT4, NL4-3 NanoLuc-sec reporter).
With `CCn1c(C)c(CC(=O)N[C@@H](Cc2ccccc2)C(=O)N(C)c2ccc(Cl)cc2)c2ccccc21` the EC50 was 160 ± 50 nM (viral infection).
`C#Cc1ccc(C[C@@H]2NC(=O)CSCCNC(=O)[C@H](Cc3ccccc3)N(C)C(=O)[C@H](CC(C)C)NC(=O)[C@H](CCC3CCCCC3)NC(=O)[C@H](CC(C)C)NC(=O)[C@H](C(C)C)NC(=O)[C@]3(C)CCCN3C(=O)[C@H](C(C)C)NC2=O)cc1` has an EC50/IC50 ratio of 13.7 (viral replication; MT4; relative to: cell EC50 over protease IC50).
`CCn1c(C)c(CC(=O)N[C@@H](Cc2ccccc2)C(=O)N(C)c2ccc(F)cc2)c2ccccc21` gave an EC50 of 220 ± 6 nM (viral infection).
`CC(C)C[C@@H]1NC(=O)[C@H](C(C)C)NC(=O)[C@@H]2CCCN2C(=O)[C@H](C(C)C)NC(=O)[C@H](Cc2ccccc2)NC(=O)CSCCNC(=O)[C@H](Cc2ccccc2)N(C)C(=O)[C@H](CC(C)C)NC(=O)[C@H](Cc2cccc3ccccc23)NC1=O` has an EC50/IC50 ratio of 465 (viral replication; MT4; relative to: cell EC50 over protease IC50).
Under “IC50 fold change”, `COc1ccc(S(=O)(=O)O)cc1N=Nc1c(S(=O)(=O)O)cc2cc(NCc3nc(CNc4cc(C)c(N=Nc5cc(S(=O)(=O)O)cc6cc(S(=O)(=O)O)cc(O)c56)cc4OC)nc(Nc4ccccc4)n3)ccc2c1O` is recorded as 1.46 ± 0.45 (SF162 K35A pseudovirus; relative to: SF162 wild type).
The EC50 of `CCn1c(C)c(CC(=O)N[C@@H](Cc2ccccc2)C(=O)N(C)c2cccc(F)c2)c2ccccc21` is reported as 430 ± 30 nM (viral infection).
With `Cc1cc(/C=C/C#N)cc(C)c1Oc1nc(NC2CCN(Cc3ccc(S(C)(=O)=O)cc3)CC2)nc2ncccc12` the resistance fold was 235 (MTT; MT4, RT L100I/V179D/Y181C mutant; relative to: mutant EC50 over IIIB EC50).

Repeated from above:
`COc1cc2nc(NC3CCN(Cc4ccc(C(N)=O)cc4)CC3)nc(Oc3c(C)cc(C#N)cc3C)c2cc1OC` gave a fold resistance of 1 (viral replication, MTT; MT-4, IIIB wild type; relative to: EC50 mutant over EC50 IIIB).
For `O=C(NCCCCCCCC(=O)N1CCCC2=CC3CC(CN4CCCCC34)C21)c1ccc(OC(F)(F)F)cc1` (centres unmarked), the IC50 was over 20000 nM (viral replication, multicycle luciferase; MT4, NL4-3 NanoLuc-sec reporter).
